Published values pooled from the literature.
Parts stem from different laboratories: compare values within a part only. Changes are numbered by the printed parent chain.

Block 1
Target: RNA binding protein fox-1 homolog 2, RRM domain, GST-SBP tag (RBFOX2, Homo sapiens, UniProt O43251-10, residues 100-194)
Method: RNA Bind-n-Seq
Molecule type: RNA
Matrix: in vitro
Tested at: 365 nM
Notes: natural RNA segment, single round, ends assumed
Reference: no-protein control
Reading: higher = stronger binding
Constant ends, left off below: GGGAGUUCUACAGUCCGACGAUC … UGGAAUUCUCGGGUGCCAA
Construct (chain): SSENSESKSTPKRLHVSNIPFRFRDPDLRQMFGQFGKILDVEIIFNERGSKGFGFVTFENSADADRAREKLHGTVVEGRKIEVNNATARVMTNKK
Oligonucleotide | RBNS enrichment (R)
AUCCCAGAUGCCCAGAUUCCAGUCCUGGAGUUUUAUUCUCUCAGCUUGAUCCUUUGACCAAGAAGAUCCAGUCCCAAUAUGUCACCUGUGCUUCAUCUUUGGACUAUAUC | 0.372
UAGAACUAUCCUUGUUCGAUAGCAUAGGAAAAUGUUCUGGUGAUUGUCAGGGUCUCCUAAUAUUUAUCUCAAUUCUUUUAUAAGUCUAUGGAAAUUAUUUAAUUAUUUUA | 1.44
AUCAGAGGUGCAGGCCACCAGUUAAAUGCCGUCUAUCAGGUUUUGUGCCUUAAGAGACUACAGAGUCAAAGCUCAUUUUUAAAGGAGUAGGACAAAGUUGUCACAGGUUU | 0.326
GCCAUCUUACAGGGAAAAGUUAUAACCACUAUUCCCCUAUAACAUAAUGCUAAUGAUUGUACUUAGUACAUUUUUAUACUUUUAUGAUAUUUUACUGAUUGGAAAUGUCA | 0.293
AAUUUUUCUGUAUCCUGGAACCAUUACAUGAUCAUGUUGCUUUGAAGAUCUUUUUAUGCCACUGUUUCUGCUGUCUUGGUUCUGACACCCCUGUCUGGUGAUAUGCUAUA | 0.577
GGGUUCUUCUCGAAAAUGCCAAGUGGAAGACUUUGUGGCAUGCUCCAGAUUUAAAUCCAGCUGAGGCUCCCUUUGUUUUCAGUUCCAUGUAACAAUCUGGAAGGAAACUU | 0.554
ACUCUGCUUUGCCCAAGUGUGACAGCACUGGGGAGGAGAGACAGGAUAAAGGGCAGAUGUCAGCAAUACUAAGGGCUUCCUCAUGGGAGGGCAUGAGGCUCCACUCAUUG | 0.394
UCCAGCCUUGCAAGAAGGCUAUUCACAAUUAGGCCUGGCUGCUUCUCUCAUUUUUUUCCUCCCAGUUUCCAAACAAGCCCUCAGUGAACAUCAUUGAAGCGUGACUGCCU | 0.294

Block 2
Target: ABI1, truncated, D143A, DHFR fusion (Arabidopsis thaliana, UniProt P49597)
Method: DHFR PCA, dose-response
Matrix: yeast
Notes: Hill fit, mean, not affinity
With: (+)-ABA, dose series
Reading: lower = more sensitive
Starting sequence: PYL1, truncated, DHFR fusion (Arabidopsis thaliana, UniProt Q8VZS8); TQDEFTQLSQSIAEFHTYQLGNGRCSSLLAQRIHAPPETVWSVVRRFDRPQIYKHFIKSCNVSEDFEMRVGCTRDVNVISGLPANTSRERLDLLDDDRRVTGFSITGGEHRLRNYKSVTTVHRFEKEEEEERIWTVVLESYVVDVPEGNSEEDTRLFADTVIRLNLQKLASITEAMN
Substitution | ABA EC50
L164S | 2.24 µM
L166I | 260 µM
H34C | 1.67 µM
I57N | 468 µM
V142A | 4.85 µM
E4C | 2.39 µM
R98A | 6.78 µM
P37F | 153 µM
D75N | 1.54 µM
T1S | 1.83 µM
Q19S | 1.92 µM
L166Q | 122 µM
P37K | 187 µM
I12E | 152 µM
E64C | 3.37 µM
V100M | 9.47 µM
E4G | 4.24 µM
Q51S | 46.6 µM
G148L | 40.6 µM
F124T | 18.4 µM
R49Q | 1.63 µM

Block 3
Target: Histone acetyltransferase KAT6A, winged helix 1, GST fusion (KAT6A, Homo sapiens, UniProt Q92794, residues 1-85)
Method: protein binding microarray
Molecule type: double-stranded DNA, one strand shown
Matrix: in vitro
Tested at: not given
Notes: 8-mer, flanks averaged, mean of 2 arrays, mostly near background
Reference: not given
Reading: higher = stronger binding
Target sequence (chain): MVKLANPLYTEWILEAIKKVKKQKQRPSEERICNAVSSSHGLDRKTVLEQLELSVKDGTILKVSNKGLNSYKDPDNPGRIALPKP
Oligonucleotide | E-score
CATAACCG | 0.00118
CGAGGCCA | -0.166
AGCACAAG | -0.257
GAGCTGCC | 0.116
CAGCTCCG | 0.111
GGCAGATA | 0.0897
GTTTCGCA | -0.0741
CAACCTAG | -0.206
ACTCCGCG | 0.278
TGAAGTCA | -0.183
AGAAGACG | -0.106
CCTCTCTC | -0.307
ATATACAC | -0.0789
AATTCTGA | -0.152
GCTCCCCC | 0.113
TATGACAA | -0.209
ACACGACC | -0.0195
AAGCATGG | -0.0811
TACCGGAA | 0.193
AGAACTGG | -0.212
TGAGATCA | -0.0663

Further values, each from its own experiment
Organism: Saccharomyces cerevisiae
Effect on: binding
Method: competitive growth deep sequencing
Molecule type: peptide
Tested at: concentration not given
Reading: direction not given
Molecule | strain | notes | growth enrichment score
PPVIIKYIIINRF | cyclin D3-Cln2 fusion strain | peptide library 2 | -0.114
GSPLKKLFTATGL | cyclin E1-Cln2 fusion strain | combined peptide libraries | 0.779
DSGFCLDSPGPLDSKE | cyclin D2-Cln2 fusion strain | peptide tiling library | 0.721
KRRLDLETDHQY | cyclin D2-Cln2 fusion strain | peptide tiling library | -0.714

For quick reference, copied from above (block 1):
Oligonucleotide | RBNS enrichment (R)
AUCCCAGAUGCCCAGAUUCCAGUCCUGGAGUUUUAUUCUCUCAGCUUGAUCCUUUGACCAAGAAGAUCCAGUCCCAAUAUGUCACCUGUGCUUCAUCUUUGGACUAUAUC | 0.372
UAGAACUAUCCUUGUUCGAUAGCAUAGGAAAAUGUUCUGGUGAUUGUCAGGGUCUCCUAAUAUUUAUCUCAAUUCUUUUAUAAGUCUAUGGAAAUUAUUUAAUUAUUUUA | 1.44
AUCAGAGGUGCAGGCCACCAGUUAAAUGCCGUCUAUCAGGUUUUGUGCCUUAAGAGACUACAGAGUCAAAGCUCAUUUUUAAAGGAGUAGGACAAAGUUGUCACAGGUUU | 0.326
GCCAUCUUACAGGGAAAAGUUAUAACCACUAUUCCCCUAUAACAUAAUGCUAAUGAUUGUACUUAGUACAUUUUUAUACUUUUAUGAUAUUUUACUGAUUGGAAAUGUCA | 0.293
AAUUUUUCUGUAUCCUGGAACCAUUACAUGAUCAUGUUGCUUUGAAGAUCUUUUUAUGCCACUGUUUCUGCUGUCUUGGUUCUGACACCCCUGUCUGGUGAUAUGCUAUA | 0.577
GGGUUCUUCUCGAAAAUGCCAAGUGGAAGACUUUGUGGCAUGCUCCAGAUUUAAAUCCAGCUGAGGCUCCCUUUGUUUUCAGUUCCAUGUAACAAUCUGGAAGGAAACUU | 0.554
